Experimental data of several laboratories.
Each numbered part is a random draw from the data of one study; scales do not carry over between parts.
Chain of UniProt P42336 (whole entry, unmodified, looked up): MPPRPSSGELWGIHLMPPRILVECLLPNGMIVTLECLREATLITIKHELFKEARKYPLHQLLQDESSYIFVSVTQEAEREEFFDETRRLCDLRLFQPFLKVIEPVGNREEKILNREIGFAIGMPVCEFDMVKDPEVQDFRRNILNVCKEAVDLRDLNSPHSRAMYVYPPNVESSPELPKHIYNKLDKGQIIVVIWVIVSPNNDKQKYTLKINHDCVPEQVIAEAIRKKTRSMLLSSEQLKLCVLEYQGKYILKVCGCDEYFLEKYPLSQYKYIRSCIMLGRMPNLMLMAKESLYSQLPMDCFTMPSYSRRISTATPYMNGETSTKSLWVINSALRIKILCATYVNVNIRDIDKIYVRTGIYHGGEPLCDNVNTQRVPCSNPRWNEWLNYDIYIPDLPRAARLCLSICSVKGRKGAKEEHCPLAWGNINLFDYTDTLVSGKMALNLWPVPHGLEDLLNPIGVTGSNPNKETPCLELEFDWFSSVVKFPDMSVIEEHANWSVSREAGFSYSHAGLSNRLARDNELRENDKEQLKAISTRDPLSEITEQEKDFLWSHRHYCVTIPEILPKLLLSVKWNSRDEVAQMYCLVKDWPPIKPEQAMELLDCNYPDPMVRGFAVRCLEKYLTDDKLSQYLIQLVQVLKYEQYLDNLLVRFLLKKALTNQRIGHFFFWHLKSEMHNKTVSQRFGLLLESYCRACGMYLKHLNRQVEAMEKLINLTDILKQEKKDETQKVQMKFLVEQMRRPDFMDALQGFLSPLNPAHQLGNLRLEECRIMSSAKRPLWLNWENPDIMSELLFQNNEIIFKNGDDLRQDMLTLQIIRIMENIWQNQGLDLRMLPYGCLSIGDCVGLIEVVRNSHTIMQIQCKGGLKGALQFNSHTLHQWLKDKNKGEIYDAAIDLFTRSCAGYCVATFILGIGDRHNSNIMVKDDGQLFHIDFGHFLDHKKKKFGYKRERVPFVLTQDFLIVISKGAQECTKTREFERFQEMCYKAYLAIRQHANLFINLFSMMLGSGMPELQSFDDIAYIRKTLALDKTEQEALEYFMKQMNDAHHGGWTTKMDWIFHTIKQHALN
Chain of UniProt P10721 (whole entry, unmodified, looked up): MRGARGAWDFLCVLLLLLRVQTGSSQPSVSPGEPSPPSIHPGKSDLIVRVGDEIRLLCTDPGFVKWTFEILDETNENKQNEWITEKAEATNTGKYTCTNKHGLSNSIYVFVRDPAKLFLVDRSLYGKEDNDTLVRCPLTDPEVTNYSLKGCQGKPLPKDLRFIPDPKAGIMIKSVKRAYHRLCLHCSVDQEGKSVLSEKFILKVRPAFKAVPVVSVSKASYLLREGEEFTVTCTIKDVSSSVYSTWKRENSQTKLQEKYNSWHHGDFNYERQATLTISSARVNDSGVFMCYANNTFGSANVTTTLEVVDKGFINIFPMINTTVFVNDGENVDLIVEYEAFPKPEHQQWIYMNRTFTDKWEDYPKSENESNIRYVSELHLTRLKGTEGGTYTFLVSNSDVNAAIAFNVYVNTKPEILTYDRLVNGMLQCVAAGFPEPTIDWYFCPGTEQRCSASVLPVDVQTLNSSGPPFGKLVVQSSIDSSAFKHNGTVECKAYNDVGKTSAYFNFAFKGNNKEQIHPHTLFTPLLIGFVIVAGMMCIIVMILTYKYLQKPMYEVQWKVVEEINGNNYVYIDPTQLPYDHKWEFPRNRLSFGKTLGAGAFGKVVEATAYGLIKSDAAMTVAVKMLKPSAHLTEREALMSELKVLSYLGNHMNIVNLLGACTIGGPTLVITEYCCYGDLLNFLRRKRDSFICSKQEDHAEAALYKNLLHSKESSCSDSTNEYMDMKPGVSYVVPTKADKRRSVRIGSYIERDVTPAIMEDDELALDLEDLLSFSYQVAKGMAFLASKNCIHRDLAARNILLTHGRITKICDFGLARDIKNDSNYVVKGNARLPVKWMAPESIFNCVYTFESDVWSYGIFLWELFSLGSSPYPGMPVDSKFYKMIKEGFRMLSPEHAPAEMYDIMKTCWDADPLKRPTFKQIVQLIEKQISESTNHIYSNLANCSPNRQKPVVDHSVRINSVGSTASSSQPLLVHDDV
Chain of UniProt Q9H1R3 (whole entry, looked up): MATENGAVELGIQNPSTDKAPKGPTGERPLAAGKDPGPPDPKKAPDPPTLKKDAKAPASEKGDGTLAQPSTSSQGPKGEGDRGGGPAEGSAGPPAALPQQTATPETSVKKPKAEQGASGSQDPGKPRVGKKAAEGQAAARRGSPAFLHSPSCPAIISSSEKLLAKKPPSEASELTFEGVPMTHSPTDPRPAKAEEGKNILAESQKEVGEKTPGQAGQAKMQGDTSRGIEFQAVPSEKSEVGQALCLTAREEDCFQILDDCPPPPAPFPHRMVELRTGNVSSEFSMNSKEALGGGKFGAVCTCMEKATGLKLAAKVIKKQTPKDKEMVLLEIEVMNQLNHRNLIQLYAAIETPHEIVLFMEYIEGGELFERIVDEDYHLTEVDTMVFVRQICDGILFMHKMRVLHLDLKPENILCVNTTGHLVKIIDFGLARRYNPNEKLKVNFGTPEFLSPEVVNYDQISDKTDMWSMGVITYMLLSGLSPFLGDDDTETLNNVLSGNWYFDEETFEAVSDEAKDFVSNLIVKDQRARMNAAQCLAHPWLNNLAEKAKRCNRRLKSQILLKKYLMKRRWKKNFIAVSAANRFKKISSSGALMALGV
Chain of UniProt Q15418 (whole entry, looked up): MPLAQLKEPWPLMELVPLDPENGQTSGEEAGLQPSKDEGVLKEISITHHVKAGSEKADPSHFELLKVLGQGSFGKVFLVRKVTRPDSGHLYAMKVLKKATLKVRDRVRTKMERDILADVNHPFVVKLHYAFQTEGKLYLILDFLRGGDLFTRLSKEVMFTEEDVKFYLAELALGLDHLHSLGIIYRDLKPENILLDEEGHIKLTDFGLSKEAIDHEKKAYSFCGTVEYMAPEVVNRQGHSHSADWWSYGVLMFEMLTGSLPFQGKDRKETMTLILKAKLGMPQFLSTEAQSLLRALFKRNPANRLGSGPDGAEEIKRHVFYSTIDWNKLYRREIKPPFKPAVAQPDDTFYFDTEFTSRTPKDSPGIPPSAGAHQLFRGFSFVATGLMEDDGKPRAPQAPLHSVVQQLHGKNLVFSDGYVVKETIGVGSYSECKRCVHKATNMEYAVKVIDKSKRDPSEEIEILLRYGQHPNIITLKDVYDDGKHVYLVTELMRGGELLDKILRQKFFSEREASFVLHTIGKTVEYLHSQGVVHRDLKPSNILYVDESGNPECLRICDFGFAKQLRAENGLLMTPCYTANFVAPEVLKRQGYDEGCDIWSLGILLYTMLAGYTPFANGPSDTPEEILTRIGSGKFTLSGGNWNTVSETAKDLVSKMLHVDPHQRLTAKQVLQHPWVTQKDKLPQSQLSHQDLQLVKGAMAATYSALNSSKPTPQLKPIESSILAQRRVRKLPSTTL
Chain of UniProt Q86Z02 (whole entry, looked up): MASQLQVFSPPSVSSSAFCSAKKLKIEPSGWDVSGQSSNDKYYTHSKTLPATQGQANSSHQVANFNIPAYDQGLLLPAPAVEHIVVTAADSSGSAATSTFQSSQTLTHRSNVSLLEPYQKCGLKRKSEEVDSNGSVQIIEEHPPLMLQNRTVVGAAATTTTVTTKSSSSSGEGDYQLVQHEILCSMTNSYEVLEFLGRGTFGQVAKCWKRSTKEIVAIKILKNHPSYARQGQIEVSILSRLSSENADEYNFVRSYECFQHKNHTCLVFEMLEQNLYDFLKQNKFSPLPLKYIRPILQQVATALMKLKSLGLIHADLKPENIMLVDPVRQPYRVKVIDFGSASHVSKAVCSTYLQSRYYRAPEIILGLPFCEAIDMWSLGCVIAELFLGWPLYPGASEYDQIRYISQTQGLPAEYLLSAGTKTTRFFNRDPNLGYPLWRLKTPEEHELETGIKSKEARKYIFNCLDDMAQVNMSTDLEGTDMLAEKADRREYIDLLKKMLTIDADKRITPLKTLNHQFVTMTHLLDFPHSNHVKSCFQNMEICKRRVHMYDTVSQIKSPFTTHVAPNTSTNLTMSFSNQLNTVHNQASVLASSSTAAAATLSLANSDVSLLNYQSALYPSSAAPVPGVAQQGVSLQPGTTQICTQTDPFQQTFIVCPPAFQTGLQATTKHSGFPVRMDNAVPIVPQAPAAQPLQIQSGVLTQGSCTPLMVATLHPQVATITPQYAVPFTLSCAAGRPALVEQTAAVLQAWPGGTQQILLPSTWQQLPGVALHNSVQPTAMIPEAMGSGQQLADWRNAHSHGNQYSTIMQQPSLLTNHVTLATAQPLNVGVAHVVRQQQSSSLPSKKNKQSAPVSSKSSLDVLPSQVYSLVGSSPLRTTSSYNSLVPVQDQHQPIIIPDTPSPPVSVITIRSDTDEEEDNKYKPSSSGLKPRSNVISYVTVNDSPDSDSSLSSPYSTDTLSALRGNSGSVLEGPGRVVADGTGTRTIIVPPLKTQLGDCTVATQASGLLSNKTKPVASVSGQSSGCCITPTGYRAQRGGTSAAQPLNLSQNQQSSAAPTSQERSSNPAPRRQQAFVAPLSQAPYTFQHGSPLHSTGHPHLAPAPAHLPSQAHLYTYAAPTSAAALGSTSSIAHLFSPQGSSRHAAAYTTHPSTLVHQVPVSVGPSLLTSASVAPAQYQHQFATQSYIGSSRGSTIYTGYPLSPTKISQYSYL
Chain of UniProt Q13705 (whole entry, looked up): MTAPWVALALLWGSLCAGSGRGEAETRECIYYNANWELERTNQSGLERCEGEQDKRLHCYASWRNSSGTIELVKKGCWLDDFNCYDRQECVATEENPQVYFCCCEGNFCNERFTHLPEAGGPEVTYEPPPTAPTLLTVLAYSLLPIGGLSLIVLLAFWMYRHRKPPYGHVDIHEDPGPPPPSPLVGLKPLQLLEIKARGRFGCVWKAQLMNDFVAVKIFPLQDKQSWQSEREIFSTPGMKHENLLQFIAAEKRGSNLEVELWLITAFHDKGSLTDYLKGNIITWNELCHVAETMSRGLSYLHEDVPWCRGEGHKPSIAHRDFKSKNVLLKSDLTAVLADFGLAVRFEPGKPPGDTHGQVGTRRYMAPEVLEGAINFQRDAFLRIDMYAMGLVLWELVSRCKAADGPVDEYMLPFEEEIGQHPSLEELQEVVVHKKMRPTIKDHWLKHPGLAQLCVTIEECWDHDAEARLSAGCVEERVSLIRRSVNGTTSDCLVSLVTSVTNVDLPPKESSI

Sample 1 — species: mouse; matrix: microsomes or S9; tested at: 2 µM; time: 0.5 h
`NC(=O)c1ccccc1NC(=O)Cc1ccccc1C(=O)O` has a remaining compound of 93.1%.
`CC(C)NC(=O)Nc1ccc(O)c(-c2nc(-c3nnc[nH]3)no2)c1` gave a remaining compound of over 99%.
`CN1CCN(CC2COc3cc4ncnc(Nc5ccc(F)c(Cl)c5)c4cc3O2)CC1` (stereo not drawn) has a remaining compound of 77.4%.
For `Cn1nccc1-c1cccc(-c2ccc(=O)n(C)n2)c1`, the remaining compound was 2.71%.
The remaining compound of `CN1CC[C@H](OC(=O)C2(c3ccc(F)cc3)CCCC2)C1` is reported as 21.5%.

Sample 2 — method: phase 2a trial; species: idiopathic pulmonary fibrosis patients
SMILES: CC(C)n1cnc(-c2ccc(F)cc2)c1-c1ncc(C(=O)Nc2ccc(N3CCN(C)CC3)cc2)[nH]1
For refers to: arthritis; 30 mg once daily, grade 4: “adverse event incidence” read 0%.
For refers to: immunoglobulins increased; 60 mg once daily, grade 5: “adverse event incidence” read 0%.
refers to: drug eruption; 30 mg once daily, grade 1 — “adverse event incidence”: 0%.
refers to: general and administration site disorders; dose not given, grade 5, all arms pooled — “adverse event incidence”: 0%.

Sample 3 — cell line: mouse MPNST tumor cells; method: high-content immunofluorescence imaging; refers to: nuclear SOX9; tested at: 10 µM; time: 12 h; setting: mean of 2 replicates; reference: DMSO control; direction: higher = more nuclear SOX9
`Nc1nc(-c2nn(Cc3ccccc3F)c3ncccc23)ncc1C1CC1` — result for “nuclear SOX9 intensity”: 114 % of DMSO.
`Cc1ccc(CC2(O)CCN(CCOc3ccc(O)cc3)CC2)cc1` — result for “nuclear SOX9 intensity”: 146 % of DMSO.
For `CNCCC(Oc1ccccc1OC)c1ccccc1` (stereo not drawn), “nuclear SOX9 intensity” read 115 % of DMSO.
Under “nuclear SOX9 intensity”, `O=c1cc(N2CCOCC2)oc2c(-c3ccccc3)cccc12` is recorded as 103 % of DMSO.
`O/N=C/c1ccc(-c2ccc(O)c(F)c2)c(Cl)c1O`: “nuclear SOX9 intensity” 95.2 % of DMSO.

Sample 4 — method: competition with immobilised ligand; tested at: 1 µM
SMILES: O=C(O)[C@H]1[C@H](Cn2nnc3ccccc3c2=O)CC[C@@H]1C(=O)c1ccc(OCCC2CCOCC2)cc1
The remaining binding was 100% (PIK3CA (Homo sapiens, UniProt P42336, M1043I); cell-free assay).
It gave 81% for remaining binding (EGFR (Homo sapiens, UniProt P00533, G719C); cell-free assay).
For PLK3 (Homo sapiens, UniProt Q9H4B4); cell-free assay: remaining binding read 100%.
For CSNK2A2 (Homo sapiens, UniProt P19784); cell-free assay: remaining binding read 79%.
The remaining binding was 100% (BMPR2 (Homo sapiens, UniProt Q13873); cell-free assay).
Ribosomal protein S6 kinase alpha-1, C-terminal kinase domain (RPS6KA1, Homo sapiens, UniProt Q15418); cell-free assay — remaining binding: 95%.
ACVR2B (Homo sapiens, UniProt Q13705); binding — remaining binding: 79%.
The remaining binding was 100% (HIPK1 (Homo sapiens, UniProt Q86Z02); cell-free assay).
For MAP3K20 (Homo sapiens, UniProt Q9NYL2); cell-free assay: remaining binding read 100%.
For SGK2 (Homo sapiens, UniProt Q9HBY8); cell-free assay: remaining binding read 92%.
For PIK3CA (Homo sapiens, UniProt P42336, I800L); cell-free assay: remaining binding read 73%.
The remaining binding was 83% (MYLK2 (Homo sapiens, UniProt Q9H1R3); cell-free assay).
The remaining binding was 100% (KIT (Homo sapiens, UniProt P10721, V559D); cell-free assay).

Some of these lines once more (sample 4):
Ribosomal protein S6 kinase alpha-1, C-terminal kinase domain (RPS6KA1, Homo sapiens, UniProt Q15418); cell-free assay — remaining binding: 95%.
ACVR2B (Homo sapiens, UniProt Q13705); binding — remaining binding: 79%.
The remaining binding was 100% (HIPK1 (Homo sapiens, UniProt Q86Z02); cell-free assay).
